{"data": "Assay results of several laboratories", "note": "A part holds a random share of what one study measured."}
{"data": "Block 1", "target": "Protein C-ets-1 (ETS1, Homo sapiens, UniProt P14921, residues 1-441, full length assumed)", "method": "protein-binding microarray", "form": "double-stranded DNA, one strand shown", "medium": "in vitro", "concentration": "not given", "setting": "k-mer, scored over probes, only values ≥0.25", "direction": "higher = stronger binding", "Target sequence (chain)": "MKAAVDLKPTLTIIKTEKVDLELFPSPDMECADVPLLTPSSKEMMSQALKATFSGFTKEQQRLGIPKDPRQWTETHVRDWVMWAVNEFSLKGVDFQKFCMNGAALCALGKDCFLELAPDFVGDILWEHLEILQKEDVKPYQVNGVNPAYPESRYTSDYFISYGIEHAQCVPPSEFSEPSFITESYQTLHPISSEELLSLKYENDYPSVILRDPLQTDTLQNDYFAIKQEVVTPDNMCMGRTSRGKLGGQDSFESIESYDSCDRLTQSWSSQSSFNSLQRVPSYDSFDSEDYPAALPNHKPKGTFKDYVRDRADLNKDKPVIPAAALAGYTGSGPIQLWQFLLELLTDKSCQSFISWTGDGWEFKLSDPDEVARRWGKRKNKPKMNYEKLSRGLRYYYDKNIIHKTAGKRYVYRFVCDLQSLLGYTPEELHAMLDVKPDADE"}
{"Sequence": "CCTCCGGA", "E-score": 0.398}
{"Sequence": "AGGAAACA", "E-score": 0.408}
{"Sequence": "AACCGGAC", "E-score": 0.413}
{"Sequence": "CACTACCG", "E-score": 0.289}
{"data": "Block 2", "target": "Interferon regulatory factor 7, full length, phosphomimetic (IRF7, Homo sapiens, UniProt Q92985, residues 1-503, S101K/S471D/S472D/S475D/S476D/S477D/S483D/S484D/S487D)", "method": "protein-binding microarray", "form": "double-stranded DNA, one strand shown", "medium": "in vitro", "concentration": "250 nM", "setting": "60-bp whole probe", "added": "salmon DNA 0.4 mg/ml", "baseline": "random background probes", "direction": "higher = stronger binding", "shared flanks, not repeated": "GCCTAGCAC … GTCTTGATTCGCTTGACGCTGCTG", "Construct (chain)": "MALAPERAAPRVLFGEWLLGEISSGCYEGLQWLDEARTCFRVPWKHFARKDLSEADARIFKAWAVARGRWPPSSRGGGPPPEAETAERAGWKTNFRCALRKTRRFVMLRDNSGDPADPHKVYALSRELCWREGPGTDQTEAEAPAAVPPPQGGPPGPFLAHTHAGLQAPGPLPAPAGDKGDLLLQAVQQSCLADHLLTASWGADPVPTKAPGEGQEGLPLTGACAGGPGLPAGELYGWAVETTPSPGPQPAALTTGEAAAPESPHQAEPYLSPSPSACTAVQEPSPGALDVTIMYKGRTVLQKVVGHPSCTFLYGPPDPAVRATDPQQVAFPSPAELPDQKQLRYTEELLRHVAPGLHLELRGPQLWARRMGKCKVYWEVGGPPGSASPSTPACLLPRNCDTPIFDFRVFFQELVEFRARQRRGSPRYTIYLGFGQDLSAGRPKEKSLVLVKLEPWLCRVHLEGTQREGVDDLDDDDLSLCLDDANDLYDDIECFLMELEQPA"}
{"Sequence": "TCAAGTCCCTATCTCCTACTGTGCTAG", "log fluorescence [z-score]": 0.769}
{"Sequence": "CAAAACATCATTGTCATATAGTGCTAG", "log fluorescence [z-score]": -0.0666}
{"Sequence": "GACGATATCGGGTATCTAGACGTGCTA", "log fluorescence [z-score]": -0.0753}
{"Sequence": "GACGGACTGCTACTCCTGACGTGCTAG", "log fluorescence [z-score]": -0.604}
{"Sequence": "TCAGTTTACATTTTCCAACTGTGCTAG", "log fluorescence [z-score]": 1.86}
{"data": "Block 3", "target": "Histone acetyltransferase KAT6A, both winged helices, GST fusion (KAT6A, Homo sapiens, UniProt Q92794, residues 1-181)", "method": "protein binding microarray", "form": "double-stranded DNA, one strand shown", "medium": "in vitro", "concentration": "not given", "setting": "8-mer, flanks averaged, mean of 2 arrays, mostly near background", "baseline": "not given", "direction": "higher = stronger binding", "Target sequence (chain)": "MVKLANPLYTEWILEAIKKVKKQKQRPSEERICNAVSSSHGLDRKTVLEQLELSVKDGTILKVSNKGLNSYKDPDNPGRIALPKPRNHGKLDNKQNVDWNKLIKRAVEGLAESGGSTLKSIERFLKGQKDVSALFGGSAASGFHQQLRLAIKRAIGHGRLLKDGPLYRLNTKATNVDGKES"}
{"Sequence": "GGTAATGA", "E-score": 0.0181}
{"Sequence": "AAAACCGG", "E-score": 0.188}
{"Sequence": "GCCGATTA", "E-score": 0.0719}
{"Sequence": "CATTACGG", "E-score": 0.165}
{"data": "Further values, each from its own experiment"}
{"Substance": "PhoQ, residues 284 288 289 292 302 303 AEGLLW", "target": "PhoP, residues 12 14 15 18 19 SFCSL (Escherichia coli, UniProt P23836)", "assay": "Sort-seq, refers to: YFP reporter", "test system": "E. coli", "setting": "PhoQ-PhoP variant library, added: 10 µM Mg2+", "scale": "baseline: high Mg2+ state, higher = stronger signaling", "measurement": "fold induction", "result": 4.67}
{"note": "Excerpt of the above (block 2):"}
{"Sequence": "GACGATATCGGGTATCTAGACGTGCTA", "log fluorescence [z-score]": -0.0753}
